Experimental data of several laboratories.
Lines come from different studies, so protocols differ.

| Compound | species | sample | route | dose | time | notes | AUC(0-t) |
| --- | --- | --- | --- | --- | --- | --- | --- |
| Cc1nc2cccc(OCC(C)(C)C(=O)NC(C)C)c2c(N)c1C(=O)O | female Sprague-Dawley rat | plasma | oral | 10 mg/kg | – | single dose | 49.2 ng·h/mL |
| CC(=O)O[C@@]12CO[C@@H]1C[C@H](O)[C@@]1(C)C(=O)[C@H](O)C3=C(C)[C@@H](OC(=O)[C@H](O)[C@@H](NC(=O)OC(C)(C)C)c4ccccc4)C[C@@](O)([C@@H](OC(=O)c4ccccc4)[C@H]21)C3(C)C | male Sprague-Dawley rat | plasma | intravenous | 10 mg/kg | – | – | 2590 ng·h/mL |
| CCCOc1ccc([C@H]2CNC(=O)N2c2ccc3[nH]cnc3c2)cc1 | human | plasma | oral | 100 mg | – | single dose, fasted | 685 ng·h/mL |
| CCCC[C@H](NC(C)=O)C(=O)N[C@H]1CCC(=O)NC[C@@H](C(=O)N[C@@H](Cc2c[nH]c3ccccc23)C(N)=O)NC(=O)[C@H](CCCNC(=N)N)NC(=O)[C@@H](Cc2ccccc2)NC(=O)[C@H](Cc2c[nH]cn2)NC1=O | female Sprague-Dawley rat | plasma | subcutaneous | 25 mg/kg | – | multiple doses, once daily | 11900 ng·h/mL |
| CNCc1ccc(-c2[nH]c3cc(F)cc4c3c2CCNC4=O)cc1 | human patients | plasma | oral | 40 mg once daily | day 1, 24 h | single dose, arithmetic mean | 915 ng·h/mL |
| CNC(=O)c1ccc(-c2cnc3ncc(Cc4ccc5ncccc5c4)n3n2)cc1F | human mild hepatic impairment | – | oral | 200 mg single dose | – | adjusted geometric mean | 4730 ng·h/mL |
| C#C[C@]1(CO)O[C@@H](n2cnc3c(N)nc(F)nc32)C[C@@H]1O | human | plasma | oral | 5 mg | – | single dose, fasted | 0.37 µM·h |
| CCCCC1(CCCC)CN(c2ccccc2)c2cc(SC)c(OCC(=O)N[C@@H](C(=O)NCC(=O)O)c3ccccc3)cc2S(=O)(=O)C1 | human | plasma | oral | 2.5 mg once daily | day 1 | geometric mean | 0.314 ng·h/mL |

Repeated from above:
| Compound | species | sample | route | dose | time | notes | AUC(0-t) |
| --- | --- | --- | --- | --- | --- | --- | --- |
| CCCC[C@H](NC(C)=O)C(=O)N[C@H]1CCC(=O)NC[C@@H](C(=O)N[C@@H](Cc2c[nH]c3ccccc23)C(N)=O)NC(=O)[C@H](CCCNC(=N)N)NC(=O)[C@@H](Cc2ccccc2)NC(=O)[C@H](Cc2c[nH]cn2)NC1=O | female Sprague-Dawley rat | plasma | subcutaneous | 25 mg/kg | – | multiple doses, once daily | 11900 ng·h/mL |
